Results of several laboratories.
Each line is one published result; not all experiments were run side by side. “And” joins repeats or separate records; there may be more than shown. ± marks the error that the study gave. In brackets after ≈: the same amount, converted by molar mass.

| SMILES | organism | test | system | setting | how to read | measurement | result |
| --- | --- | --- | --- | --- | --- | --- | --- |
| Oc1ccccc1-c1nc(-c2cccs2)c(-c2cccs2)[nH]1 | SARS-CoV-2 | cytopathic effect | USA_WA1/2020 | retest, 8-point, duplicates |  | maximum response | 11.5% |
| O=S(=O)(c1cccc(Oc2ccccc2)c1)N1CCn2cncc2C1 | Lassa mammarenavirus | viral replication | Huh-7 | 10 µM, 72 h |  | remaining activity | 38% |
| COc1ccc(C(=O)Nc2ccc(N3CCN(C(=O)c4cnccn4)CC3)nc2)cc1 | Mycobacterium tuberculosis | bacterial growth | H37Ra-lux | 168 h |  | IC90 | > 64 µM |
| O=C(CCC1CCCCC1)Nc1ncc(CC2CCCCC2)s1 | Histoplasma capsulatum | microbial growth |  |  |  | MIC | 2.5 to 5 µM (≈ 0.836 to 1.67 µg/mL) |
| CNC(=O)[C@@H](NC(=O)[C@H](CC(C)C)[C@H](O)C(=O)NO)C(C)(C)C | Daboia russelii |  | mouse | intravenous, 60 µg/mouse, 24 h, drug mixture, added: KA venom 2.5 x LD50 preincubated |  | survival | 100% |
| CC(=O)c1ccc2c(c1)N(CCCN(C)C)c1ccccc1S2 | SARS-CoV-2 | viral replication, high-content imaging screen |  | cell-based |  | EC50 | > 100 µM |
| O=c1ccn([C@@H]2O[C@](F)(CO)[C@@H](O)[C@H]2O)c(=O)[nH]1 | Junin virus | viral replication | Vero, recombinant Romero |  |  | EC90 | 0.0072 ± 0.0019 µM |
| O=C1c2c(O)c(=O)ccn2N([C@@H]2c3ccccc3SCc3c2ccc(F)c3F)[C@@H]2COCCN12 | Influenza A virus | viral replication | A(H9N2) | mean |  | EC50 | 0.00037 ± 4e-05 µM |
| CCCCCCCCCCCCCCNC(=O)CP(=O)(O)O | Bacillus anthracis |  | Ames/IA |  |  | MIC90 | 6.25 µg/mL (≈ 18.6 µM) |
| CN(C)c1cccc(C(=O)NCC2CCN(c3cc(-c4ccc(Cl)cc4)n[nH]3)CC2)c1 | SARS-CoV-2 | cytopathic effect | USA_WA1/2020 | round 2, 5-point |  | maximum response | 68.7% |
| CN1CCCC(n2nc(Cc3ccc(Cl)cc3)c3ccccc3c2=O)CC1 (stereo not drawn) | SARS-CoV-2 | viral replication, GFP plate reader screen |  | cell-based |  | EC50 | 13.3 µM |
| Cc1csc(SCC(=O)NC2CCCc3c2cnn3-c2cccc(C)c2C)n1 (stereo not drawn) | Lassa mammarenavirus | viral replication | Huh-7 | 10 µM, 72 h |  | remaining activity | 44% |
| O=C(Nc1ccc(N2CCCN(C(=O)c3cnccn3)CC2)nc1)c1ccc(Br)cc1 | Mycobacterium tuberculosis | bacterial growth | H37Ra-lux | 168 h |  | IC90 | 3.88 µM |
| Cn1c(=O)ccc2ccc(F)c(CCNC[C@H]3CN(c4cnc5c(n4)NC(=O)CO5)C(=O)O3)c21 | Burkholderia pseudomallei | microbial growth |  |  |  | MIC50 | 0.25 µg/mL (≈ 0.534 µM) |
| COC(=O)C(N)Cc1ccc(OP2(=O)COC(Cn3ccc(N)nc3=O)CO2)cc1 (stereo not drawn) | vaccinia virus | viral replication |  |  |  | IC50 | 25 µM |
| Cc1c(NCc2cccnc2)cccc1C(=O)NCc1ccc2nonc2c1 | Lassa mammarenavirus | viral replication | Huh-7 | 10 µM, 72 h |  | remaining activity | 59% |
| CC(C)=CCc1c(O)ccc(C(=O)/C=C/c2ccc(O)cc2)c1O | SARS-CoV-2 | viral cytopathic effect | Vero E6 | 12.5 µM |  | mean inhibition | 0% |
| O=C(Nc1ncc(Cc2ccccc2)s1)C1CCCC1 | Histoplasma capsulatum | microbial growth |  |  |  | MIC | 5 µM (≈ 1.43 µg/mL) |
| O=C(Nc1ccc(N2CCN(C(=O)c3cnccn3)CC2)nc1)c1c(Cl)cccc1Br | Mycobacterium tuberculosis | bacterial growth | H37Ra-lux | 168 h |  | IC90 | 3.82 µM |
| Cc1cc2cc(Oc3ccnc(Nc4cccc(CS(=O)(=O)NCCN(C)C)c4)n3)ccc2[nH]1 | SARS-CoV-2 | viral replication, high-content imaging screen |  | cell-based |  | EC50 | > 50.1 µM |
| Cc1nc(N(C)Cc2cc(-c3ccccc3)on2)c2cccnc2n1 | Lassa mammarenavirus | viral replication | Huh-7 | 10 µM, 72 h |  | remaining activity | 51% |
| COCCCNC(=O)C1CCN(Cc2cc3ccccc3n2Cc2cccc(Cl)c2)CC1 | SARS-CoV-2 | cytopathic effect | USA_WA1/2020 | round 2, 5-point |  | efficacy | 50.1% |
| CN1CCN(C(c2ccccc2)c2ccccc2)CC1 | Marburg virus | pseudovirus entry | A549 |  | baseline: CC50 over IC50 | selectivity index | > 5 |

| SMILES | organism | test | system | setting | how to read | measurement | result |
| --- | --- | --- | --- | --- | --- | --- | --- |
| O=C1CC(Nc2ncnc3c2CCC3)CN1CCCc1ccccc1 (stereo not drawn) | Lassa mammarenavirus | viral replication | Huh-7 | 10 µM, 72 h |  | remaining activity | 43% |
| Nc1ncnc2c([C@@H]3N[C@H](CO)[C@@H](O)[C@H]3O)c[nH]c12 | Sudan ebolavirus | viral replication | HeLa, Boniface | 0.8 µM |  | inhibition | 14.1% |
| COc1cc2c3cc1Oc1cc(ccc1O)CC1c4c(cc(OC)c(O)c4Oc4ccc(cc4)CC3N(C)CC2)CCN1C (stereo not drawn) | SARS-CoV-2 | viral replication, GFP plate reader screen |  | cell-based |  | EC50 | > 10 µM |
| COc1ccc2c(Sc3ccccc3)c(C(=O)NCCCN3CCCCC3)[nH]c2c1 | SARS-CoV-2 | cytopathic effect | USA_WA1/2020 | round 2, 5-point |  | maximum response | 83.3% |
| COc1ccc(C[C@@H]2c3cc(Oc4cc(C[C@@H]5c6cc(O)c(OC)cc6CCN5C)ccc4O)c(OC)cc3CCN2C)cc1 | Severe acute respiratory syndrome coronavirus 2 | cytopathic effect, inhibitor | Vero C1008 | 100 µM |  | inhibition | 93.3% |
| Nc1ncnc2c1ncn2[C@@H]1O[C@@H]2COP(=O)(O)O[C@H]3[C@@H](O)[C@H](n4cnc5c(=O)[nH]cnc54)O[C@@H]3COP(=O)(O)O[C@H]2[C@H]1O | Chikungunya virus | upregulated Reactome pathway, RNA sequencing, item: Cell Cycle, Mitotic (R-HSA-69278) | HFF-1 |  | baseline: CHIKV-infected untreated | fold enrichment | 1.83 |
| Cc1c(NCc2ccccn2)cccc1C(=O)N1Cc2ccccc2C1 | Lassa mammarenavirus | viral replication | Huh-7 | 10 µM, 72 h |  | remaining activity | 39% |
| COc1ccccc1OCCNCC(O)COc1cccc2[nH]c3ccccc3c12 (stereo not drawn) | SARS-CoV-2 | viral replication, high-content imaging screen |  | cell-based |  | EC50 | 10 µM |
| C#CCCCOc1c2c(c(-c3ccc4c(c3)OCO4)c3cc(OC)c(OC)cc13)C(=O)OC2 | VSV pseudotyped with Marburg virus GP | viral entry, item: GFP |  |  |  | IC50 | 0.402 ± 0.0459 µM |
| COc1ccc(CCNC(=O)c2cc(Nc3ccccc3)nc3ccccc23)cc1OC | SARS-CoV-2 | cytopathic effect | USA_WA1/2020 | round 1, 5-point |  | efficacy | 52.1% |
| Cc1nc2n(n1)CC(=O)N[C@@H](C(C)C)CN(Cc1cccc(O)c1)CC(=O)N[C@@H](CC(C)C)c1nc(cs1)C(=O)N[C@H]2Cc1ccccc1 | Lassa mammarenavirus | viral replication | Huh-7 | 10 µM, 72 h |  | remaining activity | 90% |
| CNCc1ccc(-c2cc(-c3nc(-c4ccc(S(=O)(=O)C(C)C)cc4)cnc3N)on2)cc1 | SARS-CoV-2 | viral replication, GFP plate reader screen |  | cell-based |  | EC50 | > 5.01 µM |
| CC(C)(C)c1ccc(CN2CCN(C(c3ccccc3)c3ccc(Cl)cc3)CC2)cc1 (stereo not drawn) | Ebola virus Zaire | pseudovirus entry | A549 |  | baseline: CC50 over IC50 | selectivity index | 4 |
| CCC(CC)COC(=O)[C@H](C)N[P@](=O)(OC[C@H]1O[C@@](C#N)(c2ccc3c(N)ncnn23)[C@H](O)[C@@H]1O)Oc1ccccc1 | SARS-CoV-2 replicon | N-HiBiT luminescence | HeLa | 0.01 µM | baseline: DMSO | replicon activity | 166% and 89.1% and 111% and 94.5% |
| CCC1CCCCN1CCCNC(=O)c1sc2nc(C)cc(C)c2c1-n1cccc1 (stereo not drawn) | SARS-CoV-2 | cytopathic effect | USA_WA1/2020 | round 1, 5-point |  | efficacy | 102% |
| O=C(N1CCC2(CC1)CC(CN1CCCCS1(=O)=O)CCO2)C1(c2ccccc2)CCCC1 (stereo not drawn) | Venezuelan equine encephalitis virus | viral replication |  |  |  | EC50 | 0.501 µM |
| O=C(CC(c1ccccc1)c1ccc(F)cc1)NCc1ccno1 (stereo not drawn) | Lassa mammarenavirus | viral replication | Huh-7 | 10 µM, 72 h |  | remaining activity | 45% |
| CN(C)CCC=C1c2ccccc2OCc2c1oc1ccccc21 | SARS-CoV-2 | viral replication, high-content imaging screen | BetaCov/Belgium/GHB-03021/2020 | cell-based |  | EC50 | > 100 µM |
| CCOc1ccc(CN2CCN(Cc3ccc4c(c3)c3ccccc3n4CC)CC2)cc1 | SARS-CoV-2 | cytopathic effect, cell-based CPE | USA_WA1/2020 | round 2, 5-point dilution |  | AC50 | 11.2 µM |
| CCc1c(C(=O)C(N)=O)c2c(OCC(=O)O)cccc2n1Cc1ccccc1 | Daboia russelii |  | C2C12 | 100 µM, added: Daboia russelii venom MP | baseline: venom alone | viability difference | -61.9% |
| Cc1c(-c2ccc(O)cc2)n(Cc2ccc(OCCN3CCCCC3)cc2)c2ccc(O)cc12 | SARS-CoV-2 | viral replication, high-content imaging screen |  | cell-based |  | EC50 | > 6.31 µM |
| CC1CCCCN1CCCNC(=O)c1cc(Sc2ccc(Cl)cc2)nc2ccccc12 (stereo not drawn) | SARS-CoV-2 | cytopathic effect | USA_WA1/2020 | first round 5-point |  | efficacy | 103% |

Some of these lines once more:
| SMILES | organism | test | system | setting | how to read | measurement | result |
| --- | --- | --- | --- | --- | --- | --- | --- |
| CC(=O)c1ccc2c(c1)N(CCCN(C)C)c1ccccc1S2 | SARS-CoV-2 | viral replication, high-content imaging screen |  | cell-based |  | EC50 | > 100 µM |
| COCCCNC(=O)C1CCN(Cc2cc3ccccc3n2Cc2cccc(Cl)c2)CC1 | SARS-CoV-2 | cytopathic effect | USA_WA1/2020 | round 2, 5-point |  | efficacy | 50.1% |
| Cc1c(-c2ccc(O)cc2)n(Cc2ccc(OCCN3CCCCC3)cc2)c2ccc(O)cc12 | SARS-CoV-2 | viral replication, high-content imaging screen |  | cell-based |  | EC50 | > 6.31 µM |
